Results of several laboratories.
Compare with care: the assays were run in different laboratories. ± gives the spread as reported.
Organism: Escherichia coli

`Cc1cc(-c2ccc3ccn(CC(=O)O)c(=O)c3c2)ccc1O[C@H]1O[C@H](CO)[C@@H](O)[C@H](O)[C@@H]1O` has an IC50 of 120 nM (biofilm formation; UPEC UTI89).
`CC[C@H](C)[C@H](NC(=O)[C@H](CCCCN)NC(=O)[C@H](CCCCN)NC(=O)[C@H](CC(C)C)NC(=O)[C@H](CCCCN)NC(=O)[C@H](CCC(=O)O)NC(=O)[C@H](CCCCN)NC(=O)[C@@H](NC(=O)[C@H](CCCCN)NC(=O)[C@H](CC(N)=O)NC(=O)[C@H](CCCNC(=N)N)NC(=O)[C@H](Cc1ccccc1)NC(=O)[C@H](CCCCN)NC(=O)[C@H](CCCNC(=N)N)NC(=O)[C@H](CC(C)C)NC(=O)[C@H](CCCNC(=N)N)NC(=O)[C@H](CCCCN)NC(=O)[C@H](CCCNC(=N)N)NC(=O)[C@@H](N)CC(C)C)[C@@H](C)CC)C(=O)NCC(=O)N[C@@H](CCC(N)=O)C(=O)N[C@@H](CCCCN)C(=O)N[C@H](C(=O)N[C@@H](CCC(N)=O)C(=O)NCC(=O)N[C@@H](Cc1ccccc1)C(=O)N[C@H](C(=O)N1CCC[C@H]1C(=O)N[C@@H](CCCCN)C(=O)N[C@@H](CC(C)C)C(=O)O)C(C)C)[C@@H](C)CC` has a lethal concentration of 1.01 µM (inhibition zone; Am. J16c).
`CC[C@H](C)[C@H](NC(=O)[C@H](CO)NC(=O)[C@H](CO)NC(=O)[C@H](Cc1ccccc1)NC(=O)CN)C(=O)N[C@@H](Cc1ccccc1)C(=O)N[C@@H](CCCNC(=N)N)C(=O)NCC(=O)N[C@H](C(=O)N[C@@H](C)C(=O)N[C@@H](CCCCN)C(N)=O)C(C)C` has an MBC of over 128 µM (ATCC 8739; 10% FBS).
For `CC[C@H](C)[C@H](NC(=O)[C@H](CCCNC(=N)N)NC(=O)[C@H](CCCCN)NC(=O)[C@H](CC(C)C)NC(=O)[C@H](CC(C)C)NC(=O)CN)C(=O)N[C@@H](CCCCN)C(=O)N[C@H](C(=O)N[C@@H](CC(C)C)C(=O)N[C@@H](CC(C)C)C(=O)NCCCC[C@H](NC(=O)[C@H](CCCCNC(=O)[C@H](CC(C)C)NC(=O)[C@H](CC(C)C)NC(=O)[C@@H](NC(=O)[C@H](CCCCN)NC(=O)[C@@H](NC(=O)[C@H](CCCNC(=N)N)NC(=O)[C@H](CCCCN)NC(=O)[C@H](CC(C)C)NC(=O)[C@H](CC(C)C)NC(=O)CN)[C@@H](C)CC)[C@@H](C)O)NC(=O)[C@H](CC(C)C)NC(=O)[C@H](CC(C)C)NC(=O)[C@@H](NC(=O)[C@H](CCCCN)NC(=O)[C@@H](NC(=O)[C@H](CCCNC(=N)N)NC(=O)[C@H](CCCCN)NC(=O)[C@H](CC(C)C)NC(=O)[C@H](CC(C)C)NC(=O)CN)[C@@H](C)CC)[C@@H](C)O)C(N)=O)[C@@H](C)O`, the FIC index was 0.562 (checkerboard; ATCC 25922; together with: gentamicin).
`CN1CC(=O)N=C1N.C[C@H](CCC(=O)O)[C@H]1CC[C@H]2[C@@H]3CC[C@@H]4C[C@H](O)CC[C@]4(C)[C@H]3C[C@H](O)[C@]12C` — result for “inhibition zone diameter”: 10.9 ± 1 mm (TISTR 117; 1 mg per disc, 18 to 24 h, 37 °C, 6 mm disc).
`CCCCCCCCCCCCCCCCC(=O)N[C@@H](CCCCN)C(=O)N[C@@H](CCCCN)C(=O)N[C@@H](CCCNC(=N)N)C(=O)N[C@@H](CCCCN)C(=O)N[C@@H](CCCCN)C(N)=O` has an MBC of 32 µg/mL (K12).
The FIC index of `CCCCCC(=O)NCC(=O)N[C@@H](CC(C)C)C(=O)N[C@@H](CC(C)C)C(=O)N[C@@H](CCCCN)C(=O)N[C@@H](CCCNC(=N)N)C(=O)N[C@H](C(=O)N[C@@H](CCCCN)C(=O)N[C@H](C(=O)N[C@@H](CC(C)C)C(=O)N[C@@H](CC(C)C)C(=O)NCCCC[C@H](NC(=O)[C@H](CC(C)C)NC(=O)[C@H](CC(C)C)NC(=O)[C@@H](NC(=O)[C@H](CCCCN)NC(=O)[C@@H](NC(=O)[C@H](CCCNC(=N)N)NC(=O)[C@H](CCCCN)NC(=O)[C@H](CC(C)C)NC(=O)[C@H](CC(C)C)NC(=O)CNC(=O)CCCCC)[C@@H](C)CC)[C@@H](C)O)C(N)=O)[C@@H](C)O)[C@@H](C)CC` is reported as 0.25 (checkerboard; ATCC 25922; together with: rifampicin).
For `C[C@]1(COC(=O)c2ccc(O)c(O)c2)[C@H](C(=O)O)N2C(=O)/C(=C/c3ccccn3)[C@H]2S1(=O)=O`, “MIC of ceftazidime” read at most 1 µg/mL (broth microdilution; MG1655 expressing CTX-M-2; 16 µg/mL).
For `CC[C@H](C)[C@@H]1NC(=O)[C@H](CCCCN)NC(=O)[C@@H](NC(=O)[C@H](C)NC(=O)[C@@H](NC(=O)[C@H](CC(C)C)NC(=O)[C@H](CC(N)=O)NC(=O)[C@@H](NC(=O)CNC(=O)[C@H](CC(C)C)NC(=O)[C@H](CCCNC(=N)N)NC(=O)[C@H](C)NC(=O)[C@H](CC(C)C)NC(=O)[C@H](CC(=O)O)NC(=O)[C@H](CCCCN)NC(=O)CNC(=O)[C@H](CC(C)C)NC(=O)CNC(=O)[C@H](CCCCN)NC(=O)[C@H](CO)NC(=O)[C@H](C)NC(=O)[C@H](Cc2ccccc2)NC(=O)[C@H](CCCCN)NC(=O)[C@H](C)NC(=O)[C@@H](NC(=O)CNC(=O)[C@H](CCCNC(=N)N)NC(=O)[C@H](Cc2ccccc2)NC(=O)[C@@H](NC(=O)[C@H](CO)NC(=O)[C@H](CO)NC(=O)[C@H](Cc2ccccc2)NC(=O)CN)[C@@H](C)CC)C(C)C)C(C)C)C(C)C)CSSC[C@@H](C(=O)O)NC(=O)[C@H](CCC(N)=O)NC(=O)[C@H](CCCCN)NC(=O)[C@H](CO)NC1=O`, “time to complete killing” read 20 min (ATCC 8739; 2 × MIC).
For `Cc1cc(=O)nc(NC(=O)NCCCCCCNC(=O)NCCCCCCNC(=O)OCCOCCOCCOCCOCCOCCOCC(=O)N[C@@H](CCCCN)C(=O)N[C@@H](CCCCN)C(=O)N[C@@H](Cc2ccccc2)C(=O)N2CCC[C@H]2C(=O)N[C@@H](Cc2c[nH]c3ccccc23)C(=O)N[C@@H](Cc2c[nH]c3ccccc23)C(=O)N[C@@H](Cc2c[nH]c3ccccc23)C(=O)N2CCC[C@H]2C(=O)N[C@@H](Cc2ccccc2)C(=O)N[C@@H](CCCCN)C(=O)N[C@@H](CCCCN)C(N)=O)[nH]1`, the LC99.9 was 30 µM (ATCC 8937, RPMI medium; 24 h, 37 °C).
`CC[C@H](C)[C@H](NC(=O)[C@H](CCCCN)NC(=O)[C@H](CCCCN)NC(=O)[C@H](CC(C)C)NC(=O)[C@H](CCCCN)NC(=O)[C@H](CCC(=O)O)NC(=O)[C@H](CCCCN)NC(=O)[C@@H](NC(=O)[C@H](CCCCN)NC(=O)[C@H](CC(N)=O)NC(=O)[C@H](CCCNC(=N)N)NC(=O)[C@H](Cc1ccccc1)NC(=O)[C@H](CCCCN)NC(=O)[C@H](CCCNC(=N)N)NC(=O)[C@H](CC(C)C)NC(=O)[C@H](CCCNC(=N)N)NC(=O)[C@H](CCCCN)NC(=O)[C@H](CCCNC(=N)N)NC(=O)[C@H](CC(C)C)NC(=O)[C@@H](N)CC(C)C)[C@@H](C)CC)C(=O)NCC(=O)N[C@@H](CCC(N)=O)C(=O)N[C@@H](CCCCN)C(=O)N[C@H](C(=O)N[C@@H](CCC(N)=O)C(=O)NCC(=O)N[C@@H](Cc1ccccc1)C(=O)N[C@H](C(=O)N1CCC[C@H]1C(=O)N[C@@H](CCCCN)C(=O)N[C@@H](CC(C)C)C(=O)N[C@H](C(=O)N1CCC[C@H]1C(=O)N[C@@H](CCCNC(=N)N)C(=O)N[C@H](C(=O)N[C@@H](CCC(=O)O)C(=O)N[C@@H](CO)C(=O)O)[C@@H](C)O)C(C)C)C(C)C)[C@@H](C)CC` gave a lethal concentration of 2.11 µM (inhibition zone; JM109).
The growth inhibition of `O=C(O)[C@@H]1Cc2c([nH]c3ccccc23)[C@@H](c2ccc(Cl)cc2Br)N1` is reported as 0% (BL21(DE3); 125 µM, 18 h).
With `C[C@@](O)(C(F)F)[C@H](NC(=O)c1ccc(C#CC#CC2CC2)cc1)C(=O)NO` the ED50 was 7.2 mg/kg/day (survival; NDM-1 producing, CD-1 mice, infection model; IV then IP, daily dose basis).
With `CC[C@H](C)[C@H](NC(=O)[C@H](CCCCN)NC(=O)[C@H](CCCCN)NC(=O)[C@H](CC(C)C)NC(=O)[C@H](CCCCN)NC(=O)[C@H](CCC(=O)O)NC(=O)[C@H](CCCCN)NC(=O)[C@@H](NC(=O)[C@H](CCCCN)NC(=O)[C@H](CC(N)=O)NC(=O)[C@H](CCCNC(=N)N)NC(=O)[C@H](Cc1ccccc1)NC(=O)[C@H](CCCCN)NC(=O)[C@H](CCCNC(=N)N)NC(=O)[C@H](CC(C)C)NC(=O)[C@H](CCCNC(=N)N)NC(=O)[C@H](CCCCN)NC(=O)[C@H](CCCNC(=N)N)NC(=O)[C@H](CC(C)C)NC(=O)CN)[C@@H](C)CC)C(=O)NCC(=O)N[C@@H](CCC(N)=O)C(=O)N[C@@H](CCCCN)C(=O)N[C@H](C(=O)N[C@@H](CCC(N)=O)C(=O)NCC(=O)N[C@@H](Cc1ccccc1)C(=O)N[C@H](C(=O)N1CCC[C@H]1C(=O)N[C@@H](CCCCN)C(=O)N[C@@H](CC(C)C)C(=O)N[C@@H](C)C(=O)N1CCC[C@H]1C(=O)N[C@@H](CCCNC(=N)N)C(=O)N[C@H](C(=O)N[C@@H](CC(=O)O)C(=O)N[C@@H](Cc1ccc(O)cc1)C(=O)O)[C@@H](C)O)C(C)C)[C@@H](C)CC` the lethal concentration was 2.19 µM (inhibition zone; CIP. J14b).
With `CCCCCC(=O)NCC(=O)N[C@@H](CC(C)C)C(=O)N[C@@H](CC(C)C)C(=O)N[C@@H](CCCCN)C(=O)N[C@@H](CCCNC(=N)N)C(=O)N[C@H](C(=O)N[C@@H](CCCCN)C(=O)N[C@H](C(=O)N[C@@H](CC(C)C)C(=O)N[C@@H](CC(C)C)C(=O)NCCCC[C@H](NC(=O)[C@H](CCCCNC(=O)[C@H](CC(C)C)NC(=O)[C@H](CC(C)C)NC(=O)[C@@H](NC(=O)[C@H](CCCCN)NC(=O)[C@@H](NC(=O)[C@H](CCCNC(=N)N)NC(=O)[C@H](CCCCN)NC(=O)[C@H](CC(C)C)NC(=O)[C@H](CC(C)C)NC(=O)CNC(=O)CCCCC)[C@@H](C)CC)[C@@H](C)O)NC(=O)[C@H](CC(C)C)NC(=O)[C@H](CC(C)C)NC(=O)[C@@H](NC(=O)[C@H](CCCCN)NC(=O)[C@@H](NC(=O)[C@H](CCCNC(=N)N)NC(=O)[C@H](CCCCN)NC(=O)[C@H](CC(C)C)NC(=O)[C@H](CC(C)C)NC(=O)CNC(=O)CCCCC)[C@@H](C)CC)[C@@H](C)O)C(N)=O)[C@@H](C)O)[C@@H](C)CC` the FIC index was 0.125 (checkerboard; ATCC 25922; together with: polymyxin B).
For `CCCCCCCCCCCCCCCC(=O)NCCCC[C@H](N)C(=O)N[C@@H](CCCCN)C(=O)N[C@@H](CCCCN)C(=O)N[C@@H](CCCCN)C(=O)N[C@@H](CCCCN)C(=O)N[C@@H](CCCCN)C(N)=O`, the MBC was 128 µg/mL (K12).
